Published values of several laboratories.
Protocols differ between the studies behind these lines.
UniProt P53680, sequence (whole entry, looked up): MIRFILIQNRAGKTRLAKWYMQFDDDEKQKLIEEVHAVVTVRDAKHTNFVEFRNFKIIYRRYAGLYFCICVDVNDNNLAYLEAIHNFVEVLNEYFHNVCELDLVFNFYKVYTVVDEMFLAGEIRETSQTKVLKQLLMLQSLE
UniProt P30536, sequence (whole entry, looked up): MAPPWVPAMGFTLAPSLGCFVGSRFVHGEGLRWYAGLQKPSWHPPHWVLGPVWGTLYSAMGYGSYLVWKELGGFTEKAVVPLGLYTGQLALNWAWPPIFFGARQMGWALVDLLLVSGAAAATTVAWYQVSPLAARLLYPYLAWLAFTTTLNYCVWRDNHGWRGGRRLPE

CO[C@H]1C[C@@H]2CC[C@@H](C)[C@@](O)(O2)C(=O)C(=O)N2CCCC[C@H]2C(=O)O[C@H]([C@H](C)C[C@@H]2CC[C@@H](OC(=O)NCCOCCOCCOCCOCCOCCOCCOCCOCCC(=O)N3CCc4cc(Cn5nc(-c6ccc7oc(N)nc7c6)c6c(N)ncnc65)ccc4C3)[C@H](OC)C2)C[C@@H](O)[C@H](C)/C=C(\C)[C@@H](O)[C@@H](OC)C(=O)[C@H](C)C[C@H](C)/C=C/C=C/C=C/1C has a TRAE incidence of 0% (phase 1 dose escalation, measured: headache; advanced solid tumour patients; intravenous, 6 mg weekly, grade ≥3).
For CC(=O)N1CCC(C(=O)N2CCN3C(=O)c4cc(-c5ccccc5)ccc4NC(=O)C3C2)CC1 (stereo not drawn), “revertants per plate” read 14 (Salmonella typhimurium; TA1537; 15.8 µg/plate).
C[C@]1(CO)Cc2ncn(-c3ccc(C#N)c(Cl)c3)c2C(=O)O1: tolerability “not toxic” (healthy men; single and multiple doses up to 80 mg).
CC[C@H](C)[C@H](NC(=O)[C@H](Cc1ccccc1)NC(=O)[C@H](CCC(=O)O)NC(=O)[C@H](CCCNC(=N)N)NC(=O)[C@H](C)NC(=O)[C@H](C)NC(=O)[C@H](CCC(N)=O)NC(=O)[C@H](CCC(=O)O)NC(=O)[C@H](CCC(=O)O)NC(=O)[C@H](CC(C)C)NC(=O)[C@H](Cc1ccc(O)cc1)NC(=O)[C@H](CO)NC(=O)[C@H](CO)NC(=O)[C@@H](NC(=O)[C@H](CC(=O)O)NC(=O)[C@H](CO)NC(=O)[C@@H](NC(=O)[C@H](Cc1ccccc1)NC(=O)[C@@H](NC(=O)CNC(=O)[C@H](CCC(=O)O)NC(=O)[C@H](C)NC(=O)CCc1c[nH]cn1)[C@@H](C)O)[C@@H](C)O)C(C)C)C(=O)N[C@@H](C)C(=O)N[C@@H](Cc1c[nH]c2ccccc12)C(=O)N[C@@H](CC(C)C)C(=O)N[C@H](C(=O)N[C@@H](CCCNC(=N)N)C(=O)NCC(=O)N[C@@H](CCCNC(=N)N)C(=O)N[C@@H](CCCCNC(=O)COCCOCCNC(=O)COCCOCCNC(=O)CC[C@H](NC(=O)CCCCCCCCCCCCCCCCC(=O)O)C(=O)O)C(=O)NCC(=O)NCC(=O)N[C@@H](CO)C(=O)N[C@@H](CCCCNc1c(NCCCCCN(O)C(=O)CCC(=O)NCCCCCN(O)C(=O)CCC(=O)NCCCCCN(O)C(C)=O)c(=O)c1=O)C(=O)O)C(C)C [zirconium-89 labelled] gave a tissue uptake of 0.05 %ID/g (rat, muscle; iv, 3 nmol/kg, 168 h, ex vivo).
The tissue uptake of C[C@@H](O)[C@@H](CO)NC(=O)[C@@H](CCCNC(=N)N)NC(=O)[C@@H]1CCCN1C(=O)[C@@H]1CSSC[C@H](NC(=O)[C@H](Cc2ccccc2)NC(=O)CN2CCN(CC(=O)O)CCN(CC(=O)O)CCN(CC(=O)O)CC2)C(=O)N[C@@H](Cc2ccc(O)cc2)C(=O)N[C@@H](Cc2ccccc2)C(=O)N[C@@H](CCC(N)=O)C(=O)N[C@@H](CC(N)=O)C(=O)N1 [gallium-68 labelled] is reported as 0.7 %ID/g (healthy Wistar rat, lungs; intravenous, 8 MBq, 30 min, individual animals).
CC(=O)c1c(C)c2cnc(Nc3ccc(C4CCN(CCS(C)(=O)=O)CC4)cn3)nc2n(C2CCCC2)c1=O gave a Tmax of 56.4 min (beagle dog, both sexes, fasted, blood; oral gavage, 15 mg/kg, acidified methylcellulose vehicle, mean).
With CNCCN(C)c1nc(NC(C)c2ccccc2)c2ccccc2n1 (stereo not drawn) the maximum response was -4.01% (Vero-E6; CellTiter-Glo ATP; 72 h, retest 8-point duplicates; reference: DMSO 0%, hyamine -100%, more negative, more toxic).
CC[C@H](C)[C@@H]1NC(=O)[C@@H]2CCCN2C(=O)[C@H](CC(C)C)NC(=O)[C@H](CC(C)C)NC(=O)CNC(=O)[C@@H](NC(=O)[C@@H](NC(=O)[C@H](CC(=O)O)NC(=O)CNC(=O)[C@@H](NC(=O)[C@H](C)NC(=O)CNC(=O)[C@H](CCCCN)NC(=O)[C@H](CC(C)C)NC(=O)[C@H](CC(C)C)NC(=O)[C@H](CCCCN)NC(=O)CNC(=O)[C@@H](NC(=O)[C@@H](N)CC(C)C)C(C)C)C(C)C)C(C)C)CSSC[C@@H](C(=O)O)NC1=O: “log2 fold change” -0.722 (RNA-seq, measured: Mrpl54; mouse, traumatic brain injury model, frontal cortex and hippocampus; dose not given; reference: TBI alone).
For O=C1c2c(O)c(=O)ccn2N([C@@H]2c3ccccc3SCc3c2ccc(F)c3F)[C@@H]2COCCN12, the trough concentration was 33.6 ng/mL (BALB/c mouse; subcutaneous, 4 mg/kg q12h).
For C[C@H]1CN(c2n[nH]c3nc(N[C@H]4CC[C@H](NS(=O)(=O)CCC(F)(F)F)CC4)ncc23)CCO1, the remaining binding was 1.11 (AP-2 complex subunit sigma (Homo sapiens, UniProt P53680); Kinobeads competition, measured: AP2S1; 20 µM, unit not given; reference: vehicle).
The IC50 of COc1cc(Nc2ncc(F)c(Nc3ccc4c(n3)NC(=O)C(C)(C)O4)n2)cc(OC)c1OC is reported as greater than 10 µM (Translocator protein (TSPO, Homo sapiens, UniProt P30536); binding).
With COc1ccc(CC(=O)NC2CCN(Cc3ccc(-c4ccccc4OC)cc3)C2)cc1 (stereo not drawn) the cytotoxicity efficacy was 0% (Vero-E6; CellTiter-Glo ATP; concentration not given, 72 h, first round 5-point; reference: DMSO 0%, hyamine -100%, more negative, more toxic).
Under “grade 3 sinus arrhythmia”, COc1cc2c(Oc3ccc4[nH]c(C)cc4c3F)ccnc2cc1OCC1(N)CC1 is recorded as 0% (paediatric recurrent refractory sarcoma; 8 mg).
The cytotoxicity efficacy of CCCCNC(=O)C1CCCN(Cc2nc(-c3ccc(Cl)cc3)oc2C)C1 (stereo not drawn) is reported as -27.6% (Vero-E6; CellTiter-Glo ATP; concentration not given, 72 h, retest 8-point duplicates; reference: DMSO 0%, hyamine -100%, more negative, more toxic).
CN1CC[C@@H](c2c(O)cc(O)c3c(=O)cc(-c4ccc(C(F)(F)F)cc4Cl)oc23)[C@@H]1CO: “patients with adverse event” 0% (measured: Nausea; AML; oral, 100 mg, intermittent dosing).

Repeated from above:
The tissue uptake of C[C@@H](O)[C@@H](CO)NC(=O)[C@@H](CCCNC(=N)N)NC(=O)[C@@H]1CCCN1C(=O)[C@@H]1CSSC[C@H](NC(=O)[C@H](Cc2ccccc2)NC(=O)CN2CCN(CC(=O)O)CCN(CC(=O)O)CCN(CC(=O)O)CC2)C(=O)N[C@@H](Cc2ccc(O)cc2)C(=O)N[C@@H](Cc2ccccc2)C(=O)N[C@@H](CCC(N)=O)C(=O)N[C@@H](CC(N)=O)C(=O)N1 [gallium-68 labelled] is reported as 0.7 %ID/g (healthy Wistar rat, lungs; intravenous, 8 MBq, 30 min, individual animals).
CN1CC[C@@H](c2c(O)cc(O)c3c(=O)cc(-c4ccc(C(F)(F)F)cc4Cl)oc23)[C@@H]1CO: “patients with adverse event” 0% (measured: Nausea; AML; oral, 100 mg, intermittent dosing).
